# Experimental data gathered from unrelated publications.
# A part holds a random share of what one study measured. Changes are numbered by the printed parent chain.

# Study 1
# Target: CEBPE, bZIP domain (human)
# Technique: DHFR protein complementation
# Sample: yeast
# Notes: single substitutions, most at no-binding floor
# Relative to: wild-type JUN-FOS pair
# Reading: higher = stronger binding
# Starting sequence: JUN, bZIP domain (human); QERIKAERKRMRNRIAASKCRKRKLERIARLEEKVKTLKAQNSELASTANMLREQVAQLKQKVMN; partner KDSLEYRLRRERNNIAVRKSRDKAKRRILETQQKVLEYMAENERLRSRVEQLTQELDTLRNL
Variant,binding fitness
K34C,-1.26 natural log
E33H,-1.28 natural log
A57E,-0.847 natural log
N42K,-1.26 natural log
V35A,-1.06 natural log
R53N,-1.24 natural log
V56E,-1.48 natural log
T48N,-1.42 natural log

# Study 2
# Substance: PhoQ, residues 284 288 289 292 302 303 SACGEM
# Technique: Sort-seq
# Item: YFP reporter
# Sample: E. coli
# Notes: PhoQ-PhoP variant library
# Added: 10 µM Mg2+
# Relative to: high Mg2+ state
# Reading: higher = stronger signaling
target,fold induction
"PhoP, residues 12 14 15 18 19 AYFRS (Escherichia coli, UniProt P23836)",16
"PhoP, residues 12 14 15 18 19 SFCSL (Escherichia coli, UniProt P23836)",18.2
"PhoP, residues 12 14 15 18 19 HHYTI (Escherichia coli, UniProt P23836)",3.71

# Study 3
# Target: CCNF, cyclin fold, Cln2 fusion (human)
# Technique: yeast growth competition, sequencing
# Sample: yeast
# Notes: strong parent motif
# Relative to: not given
# Reading: higher = stronger binding
# Starting sequence: CDT1 docking peptide (human); PPARRRLRLSVDE
Variant,normalised enrichment score
APARRRLRLSVDE [P1A],7.51
PPAARRLRLSVDE [R4A],4.81
PPARRRLRLSVAE [D12A],9.27
PPARRRLRLSVDA [E13A],8.32
PPARRRARLSVDE [L7A],2.04
PPARKRLRFSVDE [R5K L9F],2.8
PPARRALRLSVDE [R6A],5.45

# Study 4
# Target: RNA binding protein fox-1 homolog 2, RRM domain, GST-SBP tag (RBFOX2, Homo sapiens, UniProt O43251-10, residues 100-194)
# Technique: RNA Bind-n-Seq
# Form: RNA
# Sample: in vitro
# Tested at: 365 nM
# Notes: natural RNA segment, single round, ends assumed
# Relative to: no-protein control
# Reading: higher = stronger binding
# All sequences stand within: GGGAGUUCUACAGUCCGACGAUC … UGGAAUUCUCGGGUGCCAA
# Residues (chain): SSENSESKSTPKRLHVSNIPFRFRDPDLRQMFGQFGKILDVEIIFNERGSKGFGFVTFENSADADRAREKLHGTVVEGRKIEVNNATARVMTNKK
Sequence,RBNS enrichment (R)
UGAGAGGUGGCAGAGCUGCGCUCCUGCCCACAGUGCUAGCCCAGGAAUCCUGGGGAGGCUGAGUAGACAUGAGUAAGAACAGGGCGCCGCCCCGCCCCUUCCUCCCCCAC,0.538
AAAAGAUAAAAAAUAUACAUAACGAUGAAAAAUAAUACAAAUUUAAAAACCAAUACAGUAUAACAACUAUUUACAUAGUGCUUACAUUGUAUUAGGUGUUAUAAGCAAUC,1.02
AUACACACACAAUAAUUUUUUAAACUCCAUAAAGUUAUUAACAUGUCAGCAGGCAGAGCAUUGCAGUUUAUUUAACUGAUGGCCAGGUUCUUGUUAGAACACCAAGCACA,0.962
UUUAUAAAGCUUGAGUUAUGUAAGAUUUAAAUAAAAGUUUGCUACCAAGAUGAUUGCCUUAUUGAAUAGGUCACUACUAAGGCCCUUAAGUGUUGAUACCUGCCAUGUGU,0.609
UUUGGGGUCAGUGUUACGAGGUGGCCUGUGGAGGUCUUCCGGUCCUGUUGGGAUCAUUUGUGAAUACAUUCUUUGCUCCUCUUAAGUGCUUGUUUCCUAACCGUGCAGUG,1.48
AACAGUCCUAAAAUGAUGGAACUAUUUAAAAGGGUGUCAACUCUUAAGAGAACACCUGUGGUUUAAAUGUUCUUUUUCUGCUUCCUUUUCUAUCUGAGAGGUCCUAACCA,0.258
UUGCCACACCAAUCAGAGAGCCUAGAACAUCCCUGGGCAAGUGGAUGGCCCAGCAGGCAGGCACUGUGGCCCUUCUGUCCACCAGACCCACCUGGAGCCCGCUUCAAGCU,0.373
GCCCUGCCGCCCCAGCCUGGACGCUCUGCGUGGAAGUGCGUGUUUGUAGCAGCUCGGGCCUCAUCUCAGCGCUCGGAUCCCUCCUGCUGCCAGAAUCCACUGGCCUCUGU,0.273
